{"data": "Published values collected from several papers", "OPRD1": "Delta-type opioid receptor (OPRD1, Homo sapiens, UniProt P41143)", "OPRD1 with Gi1": "Delta-type opioid receptor, with Gi1 (OPRD1, Homo sapiens, UniProt P41143)", "note": "Compare with care: the assays were run in different laboratories. ± gives the spread as reported.", "sequence of UniProt P41143 (whole entry, looked up)": "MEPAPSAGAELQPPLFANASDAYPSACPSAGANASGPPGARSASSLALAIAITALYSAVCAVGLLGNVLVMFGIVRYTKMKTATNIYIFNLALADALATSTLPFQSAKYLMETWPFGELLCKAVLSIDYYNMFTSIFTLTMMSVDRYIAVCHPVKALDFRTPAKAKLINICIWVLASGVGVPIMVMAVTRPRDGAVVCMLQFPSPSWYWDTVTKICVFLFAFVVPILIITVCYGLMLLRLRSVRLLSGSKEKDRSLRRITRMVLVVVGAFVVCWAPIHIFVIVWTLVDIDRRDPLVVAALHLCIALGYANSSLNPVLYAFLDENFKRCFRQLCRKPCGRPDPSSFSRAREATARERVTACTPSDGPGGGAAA"}
{"SMILES": "COC(=O)C1C(OC(c2ccc(Cl)cc2)c2ccc(Cl)cc2)CC2CCC1N2C (single isomer, unassigned)", "target": "OPRD1", "test": "binding, radioligand displacement", "setting": "inactive if below 75% at 10000 nM, added: [3H]Naltrindole", "measurement": "Ki", "value": "inactive"}
{"SMILES": "N=C(N)NCCCCCCN1CC[C@]23c4c5ccc(O)c4O[C@H]2c2[nH]c4ccccc4c2C[C@@]3(O)[C@H]1C5", "target": "OPRD1 with Gi1", "system": "human cells", "measurement": "Emax", "value": "52 ± 2%"}
{"SMILES": "CCCC[C@H](NC(=O)[C@H](Cc1ccccc1)NC(=O)CNC(=O)[C@@H](C)NC(=O)[C@@H](N)Cc1ccc(O)cc1)C(=O)N1CCC[C@H]1C(=O)N[C@@H](CC(C)C)C(=O)N[C@@H](CO[C@@H]1O[C@H](CO)[C@@H](O)[C@H](O)[C@H]1O)C(=O)N[C@@H](Cc1c[nH]c2ccccc12)C(=O)NCc1cc(C(F)(F)F)cc(C(F)(F)F)c1", "target": "OPRD1", "test": "binding, radioligand competition", "setting": "added: [3H]DPDPE", "how to read": "relative to: Ki rat MOR over Ki human DOR", "measurement": "selectivity ratio", "value": 39}
{"SMILES": "C[C@@H](NC(=O)[C@@H](N)Cc1ccc(O)cc1)C(=O)NCC(=O)N[C@@H](Cc1ccccc1)C(=O)N1CCN(C(=O)[C@H](Cc2ccccc2)NC(=O)CNC(=O)[C@@H](C)NC(=O)[C@@H](N)Cc2ccc(O)cc2)CC1", "target": "OPRD1", "test": "GTPγS binding, agonist", "setting": "cell membranes", "measurement": "Emax", "value": "56.9%"}
{"SMILES": "C[C@H]1[C@H]2CCC[C@]1(c1cccc(O)c1)CCN2CCc1ccccc1", "target": "OPRD1", "test": "radioligand competition binding", "system": "CHO membranes", "setting": "added: [3H]diprenorphine", "how to read": "relative to: Ki DOR over Ki MOR", "measurement": "selectivity ratio", "value": "170 fold"}
{"SMILES": "N=C(N)NCCCN1CC[C@]23c4c5ccc(O)c4O[C@H]2c2nc4ccccc4cc2C[C@@]3(O)[C@H]1C5", "target": "OPRD1 with Gi1", "system": "human cells", "measurement": "Emax", "value": "90 ± 3%"}
{"SMILES": "Cc1cc(O)cc(C)c1C[C@H](N)C(=O)N[C@@H]1CSSC[C@@H](NC(=O)[C@@H](N)Cc2c(C)cc(O)cc2C)C(=O)NCC(=O)N[C@@H](Cc2ccccc2)C(=O)NNC(=O)[C@H](Cc2ccccc2)NC(=O)CNC1=O", "target": "OPRD1", "test": "agonist, GTPγS binding", "system": "CHO", "setting": "concentration not given", "measurement": "agonist activity", "value": "inactive"}
{"SMILES": "CC(C)C[C@H](NC(=O)[C@@H]1CCCN1C(=O)[C@H]1NC(=O)[C@H](Cc2ccccc2)NC(=O)CNC(=O)[C@H](NC(=O)[C@@H](N)Cc2ccc(O)cc2)C(C)(C)SSC1(C)C)C(=O)N[C@@H](Cc1c[nH]c2ccccc12)C(=O)NCc1cc(C(F)(F)F)cc(C(F)(F)F)c1", "target": "OPRD1", "test": "GTPγS binding, agonist, radiometric", "setting": "cell membranes", "measurement": "Emax", "value": "57%"}
{"SMILES": "CCCCCCNC(=O)c1ccc(C[C@H](N)C(=O)N2Cc3ccccc3C[C@H]2C(=O)N[C@@H](Cc2ccccc2)C(=O)N[C@@H](Cc2ccccc2)C(=O)O)cc1", "target": "OPRD1", "test": "agonist", "system": "HEK293 cells expressing OPRD1", "measurement": "EC50", "value": "0.103 nM"}
{"SMILES": "C[C@@H](NC(=O)[C@@H](N)Cc1ccc(O)cc1)C(=O)NCC(=O)N[C@@H](Cc1ccccc1)C(=O)Nc1ccccc1NC(=O)[C@H](Cc1ccccc1)NC(=O)CNC(=O)[C@@H](C)NC(=O)[C@@H](N)Cc1ccc(O)cc1", "target": "OPRD1", "test": "GTPγS binding, agonist", "setting": "cell membranes", "measurement": "Emax", "value": "83%"}
{"SMILES": "N=C(N)NCCCCCCCN1CC[C@]23c4c5ccc(O)c4O[C@H]2c2nc4ccccc4cc2C[C@@]3(O)[C@H]1C5", "target": "Delta-type opioid receptor, with β-arrestin1 (OPRD1, Homo sapiens, UniProt P41143)", "system": "human cells", "measurement": "Emax", "value": "45 ± 3%"}
{"SMILES": "CCOC(=O)C1C(OC(c2ccc(Cl)cc2)c2ccc(Cl)cc2)CC2CCC1N2C (single isomer, unassigned)", "target": "OPRD1", "test": "binding, radioligand displacement", "setting": "inactive if below 75% at 10000 nM, added: [3H]Naltrindole", "measurement": "Ki", "value": "inactive"}
{"SMILES": "CCCC[C@@H]1NC(=O)[C@H](Cc2ccccc2)NC(=O)CNC(=O)[C@H](NC(=O)[C@@H](N)Cc2ccc(O)cc2)C(C)(C)SSC(C)(C)[C@H](C(=O)N[C@@H](Cc2c[nH]c3ccccc23)C(=O)NCc2cc(C(F)(F)F)cc(C(F)(F)F)c2)NC(=O)[C@@H]2CCCN2C1=O", "target": "OPRD1", "test": "GTPγS binding, agonist, radiometric", "setting": "cell membranes", "measurement": "Emax", "value": "42%"}
{"SMILES": "N[C@@H](Cc1ccc(C(=O)NCCc2ccc3ccccc3c2)cc1)C(=O)N1Cc2ccccc2C[C@H]1C(=O)N[C@@H](Cc1ccccc1)C(=O)N[C@@H](Cc1ccccc1)C(=O)O", "target": "OPRD1", "test": "G-protein activation, agonist", "system": "HEK293 stably expressing receptor", "how to read": "relative to: DPDPE", "measurement": "relative potency", "value": "7 to 14 fold"}
{"SMILES": "CCCC[C@@H](C(=O)N[C@@H](CC(=O)O)C(=O)N[C@@H](Cc1ccccc1)C(N)=O)N(C)C(=O)[C@@H](Cc1c[nH]c2ccccc12)NC(=O)CNC(=O)[C@@H](Cc1ccccc1)NC(=O)[C@@H](N)Cc1ccc(O)cc1", "target": "OPRD1", "test": "GTPγS binding, agonist", "measurement": "EC50", "value": "33.8 nM"}
{"note": "Some of these lines once more:"}
{"SMILES": "N=C(N)NCCCN1CC[C@]23c4c5ccc(O)c4O[C@H]2c2nc4ccccc4cc2C[C@@]3(O)[C@H]1C5", "target": "OPRD1 with Gi1", "system": "human cells", "measurement": "Emax", "value": "90 ± 3%"}
{"SMILES": "C[C@@H](NC(=O)[C@@H](N)Cc1ccc(O)cc1)C(=O)NCC(=O)N[C@@H](Cc1ccccc1)C(=O)Nc1ccccc1NC(=O)[C@H](Cc1ccccc1)NC(=O)CNC(=O)[C@@H](C)NC(=O)[C@@H](N)Cc1ccc(O)cc1", "target": "OPRD1", "test": "GTPγS binding, agonist", "setting": "cell membranes", "measurement": "Emax", "value": "83%"}
